Results pooled from the literature.
Protocols differ between the studies behind these lines. ± marks the error that the study gave.

With `O=P([O-])([O-])Oc1ccc(-c2cc(=S)ss2)cc1.[Na+].[Na+]` the solubility was 1560 ± 148 µg/mL (HPLC; 0.9% NaCl; 24 h, pH 7.4, 25 °C).
For `O=C(CN1CCN(c2cc3c(cc2F)c(=O)c(C(=O)O)cn3C2CC2)CC1)Nc1ccc(Cl)cc1`, the solubility was 500 µg/mL (DPBS:Tween-80:ethanol 85:10:5).
The solubility of `Cc1cnc(N)c(S(=O)(=O)N(C)CC(=O)Nc2ccc(OCCN(C)C)c(Cl)c2)c1` is reported as > 110 µg/mL (aqueous buffer; pH 6.8).
`Cc1ccc(/C=C/C(=O)O)cc1-c1cc2c(cc1C)C(C)(C)CCC2(C)C` gave a solubility of 7.6 ± 0.1 µM (deionized water; 24 h, 20 °C).
`Cc1cc(S(=O)(=O)N(C)CC(=O)Nc2ccc(N3CCOCC3)c(Cl)c2)c2[nH]ncc2c1` gave a solubility of 23 µg/mL (aqueous buffer; pH 6.8).
With `CSCC[C@H](N)C(=O)N[C@@H](CCC(N)=O)C(=O)N[C@@H](CCC(=O)O)C(=O)N[C@@H](CC(C)C)C(=O)N[C@@H](CCCNC(=N)N)C(=O)N[C@@H](Cc1c[nH]c2ccccc12)C(=O)N[C@@H](CS)C(=O)N[C@@H](CC(N)=O)C(N)=O` the solubility was < 40000 µg/mL.
With `COc1ccc2[nH]c3c(c2c1)CCN(C)CC3` the solubility was ≥ 40000 µg/mL (0.9% saline; fumarate salt).
For `COc1ccc(NC(=O)CN(C)S(=O)(=O)c2cc(C)cc3cn[nH]c23)cc1Cl`, the solubility was 18 µg/mL (aqueous buffer; pH 6.8).
`CC(C)(C)c1ccc(C(=O)Nc2cc(Cl)c(Br)cc2C(=O)O)cc1` gave a solubility of 62.3 µM (kinetic; PBS; pH 7.4).
`CC(=O)N[C@H]1CSCc2cc(CN=[N+]=[N-])cc(c2)CSC[C@@H](C(N)=O)NC(=O)[C@H](CC(N)=O)NC(=O)[C@H](CC(N)=O)NC(=O)[C@H](CC(C)C)NC(=O)[C@H](CC(C)C)NC(=O)[C@H](Cc2ccccc2)NC(=O)[C@H](C(C)C)NC(=O)[C@H](CC(=O)O)NC(=O)[C@H]([C@@H](C)O)NC(=O)[C@H](CCC(=O)O)NC(=O)[C@H](CC(N)=O)NC(=O)[C@H](CCC(=O)O)NC(=O)CNC(=O)[C@H](Cc2c[nH]c3ccccc23)NC(=O)[C@H]([C@@H](C)O)NC1=O` has a solubility of 5600 µg/mL (acetonitrile/water 1:1 with 0.1% TFA; crude cyclic peptide).
`CCCCCCCCCCCCCCCC(=O)Nc1nc2ccccc2c2c1ncn2CC(C)C` has a solubility of 19000 µg/mL (oil or lipid).
The solubility of `Nc1nc(Nc2ccc(Cl)cc2)nn1S(=O)(=O)c1ccc2ccccc2c1` is reported as < 0.2 µM (4 (unit not given), pH 7.4).
The solubility of `Cc1cnc(N)c(S(=O)(=O)N(C)CC(=O)Nc2ccc(=O)n(C)c2)c1` is reported as > 95 µg/mL (aqueous buffer; pH 6.8).
For `O=c1c2ccccc2[se]n1CCCn1[se]c2ccccc2c1=O`, the solubility was 232 ± 13 µg/mL (10% Soluplus in water; 24 h, 25 °C, 100 mg/mL).
The solubility of `CCN1CCN(Cc2nc3ccc([N+](=O)[O-])cc3c(=O)n2-c2ccccc2F)CC1` is reported as 122 µg/mL (pH 7.4).
With `COc1cc(NC(=O)CN(C)S(=O)(=O)c2cc(C)cnc2N)ccn1` the solubility was > 100 µg/mL (aqueous buffer; pH 6.8).
`CC(=O)CCC1C(=O)NC(C(C)C)C(=O)NC(Cc2cccc(O)c2)C(=O)N2CCCC(N2)C(=O)OC(C(C)=CC=CC(=O)N2CCCCO2)CC=CC=CC(O)C(C)C1O` (stereo not shown) has a solubility of 330 µM (PBS with 1% DMSO; 4 h, pH 7.4, room temperature).
`O=c1c2ccccc2[se]n1CCCCn1[se]c2ccccc2c1=O` gave a solubility of 116 ± 10 µg/mL (5% Soluplus in water; 24 h, 25 °C, 50 mg/mL).
With `CC(C)(N)CNC(=O)O[C@H]1CCCC2(C1)OOC1(O2)C2CC3CC(C2)CC1C3` (stereo partly shown) the solubility was 174 µM (PBS; pH 7.4).
`Cc1ccc(-n2nc3c(=O)n(CCCC(=O)NCC(C)c4ccccc4)nc(C)c3c2C)cc1` (stereo not shown) gave a solubility of 30 µM (PBS; 24 h, pH 7.4, 37 °C).
`Cc1cnc(N)c(S(=O)(=O)N(C)CC(=O)Nc2ccn(C)c(=O)c2)c1` gave a solubility of > 97 µg/mL (aqueous buffer; pH 6.8).
The solubility of `CC(C)C[C@@H](NC(=O)CCNc1ccc([N+](=O)[O-])c2nonc12)C(=O)N[C@H](CC(C)C)C(=O)N[C@H](CC(C)C)C(=O)N[C@H](CC(C)C)C(=O)N[C@H](Cc1ccc(OP(=O)(O)O)cc1)C(=O)O` is reported as ≥ 10000 µM (visual inspection; PBS).
`O=C(N=P12CN3CN(CN(C3)C1)C2)c1cccc[c]1[Pd][Br].c1cncc(P(c2cccnc2)c2cccnc2)c1` has a solubility of 500 µM (water).
With `CC(NC(=O)NNS(=O)(=O)c1ccc(OC(F)F)cc1)(C(F)(F)F)C(F)(F)F` the solubility was 480 µM (aqueous buffer; pH 7.4).
For `CC(=O)N[C@H]1CSCC(=O)N2CN(C(=O)CN=[N+]=[N-])CN(C2)C(=O)CSC[C@@H](C(N)=O)NC(=O)[C@H](CC(N)=O)NC(=O)[C@H](CC(N)=O)NC(=O)[C@H](CC(C)C)NC(=O)[C@H](CC(C)C)NC(=O)[C@H](Cc2ccccc2)NC(=O)[C@H](C(C)C)NC(=O)[C@H](CC(=O)O)NC(=O)[C@H]([C@@H](C)O)NC(=O)[C@H](CCC(=O)O)NC(=O)[C@H](CC(N)=O)NC(=O)[C@H](CCC(=O)O)NC(=O)CNC(=O)[C@H](Cc2c[nH]c3ccccc23)NC(=O)[C@H]([C@@H](C)O)NC1=O`, the solubility was 16200 µg/mL (acetonitrile/water 1:1 with 0.1% TFA; crude cyclic peptide).
`CSCC[C@H](NC(=O)[C@H](CCC(=O)O)NC(=O)[C@H](Cc1ccc(O)cc1)NC(=O)[C@@H](NC(=O)[C@H](CC(C)C)NC(=O)[C@H](CC(=O)O)NC(=O)[C@H](CC(C)C)NC(C)=O)[C@@H](C)O)C(=O)N[C@@H](CC(C)C)C(=O)N[C@@H](CO)C(=O)N[C@@H](CC(C)C)C(=O)N[C@@H](CCC(N)=O)C(=O)N[C@@]1(C)CCCC=CCCC[C@@](C)(C(=O)N[C@@H](CC(C)C)C(=O)N[C@@H](CC(N)=O)C(=O)N[C@@H](CCC(=O)O)C(=O)N[C@@H](CO)C(=O)N[C@@H](Cc2ccc(O)cc2)C(N)=O)NC(=O)[C@H](CCCCN)NC(=O)[C@H](C(C)C)NC(=O)[C@H](C(C)C)NC1=O` has a solubility of 6470 µg/mL (concentration not given, 24 (unit not given), pH 7.4).
With `CC[C@H](C)[C@H](N)C(=O)N[C@@H](CCC(=O)O)C(=O)N[C@@H](CCC(=O)O)C(=O)N[C@@H](CCC(N)=O)C(=O)N[C@@H](C)C(=O)N[C@@H](CCCCN)C(=O)N[C@H](C(=O)N[C@@H](C)C(=O)N[C@@H](CC(C)C)C(=O)N[C@@H](CC(=O)O)C(=O)N[C@@H](CCCCN)C(=O)N[C@@H](C)C(=O)N[C@@H](CC(N)=O)C(=O)N[C@@H](Cc1c[nH]cn1)C(=O)N[C@@H](CCC(=O)O)C(=O)N[C@@H](C)C(=O)N[C@@H](CCC(=O)O)C(=O)N[C@@H](CC(=O)O)C(=O)N[C@@H](CC(C)C)C(=O)N[C@@H](C)C(=O)N[C@@H](Cc1ccc(O)cc1)C(=O)N[C@@H](CCC(N)=O)C(=O)N[C@@H](CO)C(=O)N[C@@H](CCCCN)C(N)=O)[C@@H](C)O` the solubility was ≥ 800 µM (PBS; pH 7.5).
`CC(C)[C@]12O[C@H]1[C@@H]1O[C@]13[C@]1(O[C@H]1C[C@H]1c4c(C(=O)c5ccccc5)oc(OC(=O)c5ccccc5)c4CC[C@@]13C)[C@@H]2O` has a solubility of ≥ 2000 µg/mL (emulsion formulation).

For quick reference, copied from above:
`CC(=O)CCC1C(=O)NC(C(C)C)C(=O)NC(Cc2cccc(O)c2)C(=O)N2CCCC(N2)C(=O)OC(C(C)=CC=CC(=O)N2CCCCO2)CC=CC=CC(O)C(C)C1O` (stereo not shown) has a solubility of 330 µM (PBS with 1% DMSO; 4 h, pH 7.4, room temperature).
`O=c1c2ccccc2[se]n1CCCCn1[se]c2ccccc2c1=O` gave a solubility of 116 ± 10 µg/mL (5% Soluplus in water; 24 h, 25 °C, 50 mg/mL).
With `CC(C)(N)CNC(=O)O[C@H]1CCCC2(C1)OOC1(O2)C2CC3CC(C2)CC1C3` (stereo partly shown) the solubility was 174 µM (PBS; pH 7.4).
`Cc1ccc(-n2nc3c(=O)n(CCCC(=O)NCC(C)c4ccccc4)nc(C)c3c2C)cc1` (stereo not shown) gave a solubility of 30 µM (PBS; 24 h, pH 7.4, 37 °C).
